Measurements of several laboratories.
Every numbered part comes from another study and shows a few of its results, in no order. Positions count from the first letter of the parent shown.
UniProt P78368, sequence (whole entry, looked up): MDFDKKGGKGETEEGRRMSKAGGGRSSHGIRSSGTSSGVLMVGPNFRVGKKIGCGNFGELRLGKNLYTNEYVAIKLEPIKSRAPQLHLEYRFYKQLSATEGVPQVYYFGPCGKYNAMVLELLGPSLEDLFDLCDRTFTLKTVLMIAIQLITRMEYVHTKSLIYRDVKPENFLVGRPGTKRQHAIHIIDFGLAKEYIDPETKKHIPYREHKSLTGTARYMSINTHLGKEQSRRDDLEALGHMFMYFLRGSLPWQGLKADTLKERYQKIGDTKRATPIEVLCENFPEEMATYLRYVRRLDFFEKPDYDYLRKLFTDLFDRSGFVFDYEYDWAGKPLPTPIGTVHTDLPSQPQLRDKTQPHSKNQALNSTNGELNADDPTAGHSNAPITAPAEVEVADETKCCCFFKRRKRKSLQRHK
UniProt P51668, sequence (whole entry, looked up): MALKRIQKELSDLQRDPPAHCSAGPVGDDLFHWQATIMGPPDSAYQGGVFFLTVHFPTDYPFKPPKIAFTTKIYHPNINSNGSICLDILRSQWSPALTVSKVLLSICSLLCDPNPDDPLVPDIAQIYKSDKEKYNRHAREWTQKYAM
UniProt P52333, sequence (whole entry, looked up): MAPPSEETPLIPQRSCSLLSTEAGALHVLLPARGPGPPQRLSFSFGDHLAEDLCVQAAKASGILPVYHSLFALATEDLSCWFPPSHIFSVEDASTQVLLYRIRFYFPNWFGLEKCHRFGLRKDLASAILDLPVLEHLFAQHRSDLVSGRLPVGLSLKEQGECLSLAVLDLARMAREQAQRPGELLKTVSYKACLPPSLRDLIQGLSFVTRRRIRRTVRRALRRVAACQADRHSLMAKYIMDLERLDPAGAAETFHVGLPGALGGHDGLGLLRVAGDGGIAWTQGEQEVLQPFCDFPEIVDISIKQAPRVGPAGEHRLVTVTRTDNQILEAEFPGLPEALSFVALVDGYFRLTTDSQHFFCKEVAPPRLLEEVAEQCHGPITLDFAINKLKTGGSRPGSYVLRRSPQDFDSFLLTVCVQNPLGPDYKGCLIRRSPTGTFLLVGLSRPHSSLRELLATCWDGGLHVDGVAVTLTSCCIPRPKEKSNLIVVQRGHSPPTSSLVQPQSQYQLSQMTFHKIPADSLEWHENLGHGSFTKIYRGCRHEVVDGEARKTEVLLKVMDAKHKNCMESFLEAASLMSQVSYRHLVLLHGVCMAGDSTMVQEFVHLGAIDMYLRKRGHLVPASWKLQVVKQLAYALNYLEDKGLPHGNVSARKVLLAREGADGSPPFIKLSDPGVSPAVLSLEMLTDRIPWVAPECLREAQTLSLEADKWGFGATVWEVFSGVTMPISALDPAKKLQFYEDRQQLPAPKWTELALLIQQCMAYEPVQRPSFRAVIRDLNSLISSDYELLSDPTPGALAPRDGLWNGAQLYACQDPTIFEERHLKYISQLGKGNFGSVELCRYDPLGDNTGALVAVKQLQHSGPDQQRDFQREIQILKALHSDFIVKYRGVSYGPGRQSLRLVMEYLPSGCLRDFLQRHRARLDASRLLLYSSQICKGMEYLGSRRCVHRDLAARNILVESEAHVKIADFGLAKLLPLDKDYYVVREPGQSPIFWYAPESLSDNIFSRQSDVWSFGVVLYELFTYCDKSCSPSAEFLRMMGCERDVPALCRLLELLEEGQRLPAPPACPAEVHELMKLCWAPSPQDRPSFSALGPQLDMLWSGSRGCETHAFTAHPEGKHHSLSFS
UniProt Q9UHD2, sequence (whole entry, looked up): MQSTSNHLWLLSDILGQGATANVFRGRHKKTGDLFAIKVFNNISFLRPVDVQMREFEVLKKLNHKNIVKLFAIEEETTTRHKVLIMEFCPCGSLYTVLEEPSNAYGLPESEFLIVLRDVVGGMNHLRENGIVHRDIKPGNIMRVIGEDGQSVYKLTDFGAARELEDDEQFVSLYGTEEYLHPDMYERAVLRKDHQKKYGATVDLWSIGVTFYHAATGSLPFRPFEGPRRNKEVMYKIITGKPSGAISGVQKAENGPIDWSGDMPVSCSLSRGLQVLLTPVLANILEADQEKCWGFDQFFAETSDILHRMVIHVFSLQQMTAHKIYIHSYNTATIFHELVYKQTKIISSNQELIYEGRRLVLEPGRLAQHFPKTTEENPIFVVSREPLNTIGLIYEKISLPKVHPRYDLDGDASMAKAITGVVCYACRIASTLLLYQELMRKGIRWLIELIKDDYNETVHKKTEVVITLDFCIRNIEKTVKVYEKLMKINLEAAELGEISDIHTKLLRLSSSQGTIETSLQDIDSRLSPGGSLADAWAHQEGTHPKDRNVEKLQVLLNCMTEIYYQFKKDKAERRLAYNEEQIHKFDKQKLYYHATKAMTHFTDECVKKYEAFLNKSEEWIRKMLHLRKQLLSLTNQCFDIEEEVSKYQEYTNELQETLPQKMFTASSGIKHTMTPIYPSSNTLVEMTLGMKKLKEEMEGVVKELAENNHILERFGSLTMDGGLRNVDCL
UniProt Q9UL54, sequence (whole entry, looked up): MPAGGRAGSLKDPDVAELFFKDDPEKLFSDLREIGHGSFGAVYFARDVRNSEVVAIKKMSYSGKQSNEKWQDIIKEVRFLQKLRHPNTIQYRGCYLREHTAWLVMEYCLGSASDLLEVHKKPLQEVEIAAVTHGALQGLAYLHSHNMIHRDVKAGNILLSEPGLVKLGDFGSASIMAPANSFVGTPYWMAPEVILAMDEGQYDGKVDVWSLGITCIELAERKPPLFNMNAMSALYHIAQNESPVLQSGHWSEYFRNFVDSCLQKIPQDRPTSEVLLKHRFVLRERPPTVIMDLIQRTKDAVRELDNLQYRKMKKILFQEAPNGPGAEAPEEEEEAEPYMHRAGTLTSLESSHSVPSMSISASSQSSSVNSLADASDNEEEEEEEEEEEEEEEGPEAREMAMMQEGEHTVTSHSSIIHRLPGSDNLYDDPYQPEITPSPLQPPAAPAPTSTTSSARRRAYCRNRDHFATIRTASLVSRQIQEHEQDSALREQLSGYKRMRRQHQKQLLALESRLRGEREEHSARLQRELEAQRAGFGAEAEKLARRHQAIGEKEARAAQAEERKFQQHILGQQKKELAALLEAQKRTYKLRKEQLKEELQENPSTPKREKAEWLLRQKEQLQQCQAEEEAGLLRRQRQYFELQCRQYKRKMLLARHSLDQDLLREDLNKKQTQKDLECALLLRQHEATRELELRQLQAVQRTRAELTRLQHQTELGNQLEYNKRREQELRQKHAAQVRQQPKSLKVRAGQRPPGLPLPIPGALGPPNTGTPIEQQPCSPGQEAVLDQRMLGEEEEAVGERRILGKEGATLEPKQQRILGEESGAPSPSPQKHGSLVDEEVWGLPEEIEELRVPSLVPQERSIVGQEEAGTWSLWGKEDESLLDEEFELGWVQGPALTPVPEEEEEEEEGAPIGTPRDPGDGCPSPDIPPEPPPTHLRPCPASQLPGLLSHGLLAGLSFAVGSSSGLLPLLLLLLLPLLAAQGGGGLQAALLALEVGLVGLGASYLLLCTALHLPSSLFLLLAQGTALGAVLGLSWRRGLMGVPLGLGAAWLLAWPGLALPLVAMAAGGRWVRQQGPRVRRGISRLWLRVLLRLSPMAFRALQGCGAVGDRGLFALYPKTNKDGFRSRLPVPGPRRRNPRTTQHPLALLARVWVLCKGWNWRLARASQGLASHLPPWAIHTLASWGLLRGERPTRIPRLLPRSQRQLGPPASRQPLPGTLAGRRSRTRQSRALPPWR
UniProt P49137, sequence (whole entry, looked up): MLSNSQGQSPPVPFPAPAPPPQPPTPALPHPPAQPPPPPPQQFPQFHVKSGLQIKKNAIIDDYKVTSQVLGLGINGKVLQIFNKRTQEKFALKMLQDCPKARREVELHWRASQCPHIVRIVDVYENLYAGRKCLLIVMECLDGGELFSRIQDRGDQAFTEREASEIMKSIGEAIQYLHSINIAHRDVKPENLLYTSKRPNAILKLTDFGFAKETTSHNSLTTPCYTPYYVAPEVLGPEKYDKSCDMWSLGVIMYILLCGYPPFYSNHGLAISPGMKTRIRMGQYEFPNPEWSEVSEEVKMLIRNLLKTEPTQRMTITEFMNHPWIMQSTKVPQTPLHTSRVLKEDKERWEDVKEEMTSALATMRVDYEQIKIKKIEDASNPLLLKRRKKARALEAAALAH

Study 1
SMILES: Nc1nccc(-c2c(-c3ccc(F)cc3)ncn2C2CCNCC2)n1
Effect on: enzyme activity
Mode: inhibitor
Concentration: 0.5 µM
Relative to: control
| target | remaining activity [%] |
| --- | --- |
| ABL2 (Homo sapiens, UniProt P42684) | 95.1 |
| TBK1 (Homo sapiens, UniProt Q9UHD2) | 102 |
| MAP2K2 (Homo sapiens, UniProt P36507) | 105 |
| CSNK1G3 (Homo sapiens, UniProt Q9Y6M4) | 83.9 |
| TAOK2 (Homo sapiens, UniProt Q9UL54) | 98 |
| ACVR1B (Homo sapiens, UniProt P36896) | 121 |
| NEK1 (Homo sapiens, UniProt Q96PY6) | 100 |
| GRK7 (Homo sapiens, UniProt Q8WTQ7) | 106 |
| NEK6 (Homo sapiens, UniProt Q9HC98) | 104 |
| CSNK1G2 (Homo sapiens, UniProt P78368) | 119 |
| LCK (Homo sapiens, UniProt P06239) | 80.1 |
| JAK3 (Homo sapiens, UniProt P52333) | 96.9 |
| MAPKAPK2 (Homo sapiens, UniProt P49137) | 97.6 |
| MAPK3 (Homo sapiens, UniProt P27361) | 100 |

Study 2
Target: CCNE1, cyclin fold, Cln2 fusion (human)
Technique: yeast growth competition, sequencing
Medium: yeast
Setting: strong parent motif
Relative to: not given
Direction: higher = stronger binding
Parent: RBL2 docking peptide (human); STTRRRLFVENDS; partner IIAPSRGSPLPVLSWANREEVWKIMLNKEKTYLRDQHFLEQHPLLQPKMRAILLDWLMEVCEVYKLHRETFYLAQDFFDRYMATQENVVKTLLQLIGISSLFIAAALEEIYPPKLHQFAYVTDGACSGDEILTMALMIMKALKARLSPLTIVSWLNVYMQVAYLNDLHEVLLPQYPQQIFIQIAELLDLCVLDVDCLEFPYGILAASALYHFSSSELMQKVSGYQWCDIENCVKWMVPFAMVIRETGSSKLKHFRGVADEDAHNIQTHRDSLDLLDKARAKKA
| Change | normalised enrichment score |
| --- | --- |
| STTVRRLFVENDS [R4V] | 5.13 |
| STTRRRLFDENDS [V9D] | 5.6 |
| STTDRRLFVENDS [R4D] | -0.912 |
| STTRRRLFVEVDS [N11V] | 5.78 |
| STTRRRLFVEEDS [N11E] | 5.93 |
| STTRRRLFFENDS [V9F] | 5.69 |
| STTRRRLFIENDS [V9I] | 6.72 |
| STTRRRLFVENDV [S13V] | 5.3 |

Study 3
Sequence: B1 (TRIM8 RING domain)
Technique: yeast two-hybrid
Medium: yeast
Setting: mostly zero background
Relative to: not given
Direction: higher = stronger interaction
B1: TRIM8 RING domain (UniProt Q9BZR9); chain WKNCFEEELICPICLHVFVEPVQLPCKHNFCRGCIGEAWAKDSGLVRCPECNQAYNQKPGLE
| target | lacZ reporter activity |
| --- | --- |
| UBE2E3 UBC core domain (UniProt Q969T4) | 0 |
| UBE2L3 UBC core domain (UniProt P68036) | 0 |
| UBE2J1 UBC core domain (UniProt Q9Y385) | 0 |
| UBE2Q1 UBC core domain (UniProt Q7Z7E8) | 0 |
| UBE2D1 UBC core domain (UniProt P51668) | 0 |
| UBE2Z UBC core domain (UniProt Q9H832) | 0 |
| UBE2G1 UBC core domain (UniProt P62253) | 0 |
| UBE2T UBC core domain (UniProt Q9NPD8) | 0 |

Study 4
SMILES: COc1cc(-c2cn(C3CCc4ccccc4N(CC(F)(F)F)C3=O)nn2)ccc1-n1ccc(C)n1 (stereo not drawn)
Technique: competition with immobilised ligand
Concentration: 1 µM
| target | assay | remaining binding [%] |
| --- | --- | --- |
| STK32A (Homo sapiens, UniProt Q8WU08) | binding | 97 |
| FLT3 (Homo sapiens, UniProt P36888, F691L/ITD) | cell-free assay | 80 |
| FGFR3 (Homo sapiens, UniProt P22607) | cell-free assay | 100 |
| EPHA4 (Homo sapiens, UniProt P54764) | cell-free assay | 92 |
| MYLK3 (Homo sapiens, UniProt Q32MK0) | cell-free assay | 100 |
| STK32B (Homo sapiens, UniProt Q9NY57) | cell-free assay | 85 |

Repeated from above (study 3):
| target | lacZ reporter activity |
| --- | --- |
| UBE2Z UBC core domain (UniProt Q9H832) | 0 |
| UBE2J1 UBC core domain (UniProt Q9Y385) | 0 |
| UBE2E3 UBC core domain (UniProt Q969T4) | 0 |
| UBE2Q1 UBC core domain (UniProt Q7Z7E8) | 0 |
| UBE2L3 UBC core domain (UniProt P68036) | 0 |
